Experimental data collected from several papers.
Protocols differ between the studies behind these lines.

COc1cc2ncnc(Oc3cccc(N[11C](=O)Nc4cc(C(C)(C)C(F)(F)F)on4)c3)c2cc1OC gave a logD of 4.4 (shake flask; PBS; pH 7.4).
The logD of N#Cc1ccc(NC(=O)c2cccnc2)cc1Cl is reported as 1.9 (shake flask; PBS; 4 h, pH 7.4).
For O=C(NCCNCCO)c1cn(Cc2ccccc2)c2cc(OCc3ccc(C(F)(F)F)cc3)c(Cl)cc2c1=O, the logD was over 3 (shake flask; PBS; 2 h, pH 7.4).
COC(=O)C=CCCC(NC(=O)c1ccncc1C(=O)O)C(=O)NC(C(=O)N1CC(=O)CC1C(=O)NC(C(=O)NC(C(N)=O)C1CCCCC1)C1CCCCC1)C(C)(C)C (centres unmarked) has a logD of -0.02 (shake flask; PBS; pH 7.4).
With CCNC(=O)C1OC(n2cnc3c(N)ncnc32)C(O)C1O (centres unmarked) the logD was -0.3 (shake flask; aqueous buffer; pH 7.4).
The logD of CCc1noc(CC)c1C(=O)O[C@H]1C(C)=C[C@]23C(=O)[C@@H](C=C(CO)[C@@H](O)[C@]12O)[C@H]1[C@@H](C[C@H]3C)C1(C)C is reported as 3.9 (shake flask; aqueous buffer; 24 h, pH 3).
With CC(C)(C)c1ccc(COc2cc3c(=O)c(C(=O)NCCNCCO)cn(Cc4ccccc4)c3cc2Cl)cc1 the logD was over 3 (shake flask; PBS; 2 h, pH 7.4).
The chromatographic logD of C=C1CCC2[C@](C)(CO)[C@H](O)CC[C@@]2(C)[C@@H]1/C=C/C1=CCOC1=O (some centres unmarked) is reported as 2.4 (HPLC; pH 7.4).

Repeated from above:
The logD of CCc1noc(CC)c1C(=O)O[C@H]1C(C)=C[C@]23C(=O)[C@@H](C=C(CO)[C@@H](O)[C@]12O)[C@H]1[C@@H](C[C@H]3C)C1(C)C is reported as 3.9 (shake flask; aqueous buffer; 24 h, pH 3).
